Published values pooled from the literature.
Every numbered part comes from another study and shows a few of its results, in no order. Positions count from the first letter of the parent shown.

Set 1
Target: ABI1, truncated, D143A, DHFR fusion (Arabidopsis thaliana)
Technique: DHFR PCA, deep sequencing
Matrix: yeast
Notes: methotrexate growth selection, single substitutions
Together with: (+)-ABA 0.0091 µM
Reference: wild-type fitted maximum
Direction: higher = stronger binding
Starting sequence: PYL1, truncated, DHFR fusion (Arabidopsis thaliana); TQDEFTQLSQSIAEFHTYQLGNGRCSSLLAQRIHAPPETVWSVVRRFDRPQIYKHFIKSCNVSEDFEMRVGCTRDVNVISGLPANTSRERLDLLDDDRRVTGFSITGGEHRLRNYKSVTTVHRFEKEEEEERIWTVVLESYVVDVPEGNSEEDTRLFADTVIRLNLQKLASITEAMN
| Variant | relative binding score |
| --- | --- |
| S140Y | 6.95% |
| T17V | -3.5% |
| R132T | 43.2% |
| S11D | 25% |
| Y115W | 17.9% |
| C25W | -1.36% |
| V43K | -1.14% |

Set 2
Target: Fragile X messenger ribonucleoprotein 1, C-terminal low-complexity region (Fmr1, Mus musculus, UniProt P35922)
Technique: RNA Bind-n-Seq
Form: RNA
Matrix: in vitro
Tested at: 200 nM
Notes: whole 134-nt RNA, ends assumed
Together with: 150 mM LiCl
Reference: input library
Direction: higher = stronger binding
All molecules: 7-deaza-guanosine replaces G
Constant ends, left off below: GGGAGUUCUACAGUCCGACGAUC … UGGAAUUCUCGGGUGUCAAGG
| Oligonucleotide | log2 enrichment |
| --- | --- |
| UGGGAGGUGGAUUUUGUUUAUUUUUUUAGCUCAUUUCCAGGGGUGGGAAUUUUUUUUUAAUAUGUGUCAUGAAUAAAGUUGUGUUUGAAA | 0.513 |
| CUCAAGUCCUGUGCUACACAUCGUAUGUACCGAAUCGGGCCGGGGCCGGCCGGAAAGUAUUAUGUUACGCCGUUCGGAUCUGCACUUCCA | 0.498 |
| CACAGACAACACGCACCCACACAGACACAGAGGGAAGGGGUUGGGAUGGGGACAGGGUGCACAGCAGGGCGUGGUAGGACCCCAGCCCCU | 0.154 |
| UGGCCCUGGUGGCAUGCGGGGAGGAAGCGGUGGCCUCAUGGAUCGUGGUGGUCCCGGUGGAAUGUUCAGAGGUGGCCGUGGUGGAGACAG | -0.279 |
| AGUCCUGUGCUACACAUCGUAUGUACCGAAUCGGGGUUUUUGGGGUUUGGGGUGGGGAAAGUAUUAUGUUACGCCGUUCGGAUCUGCACU | -1.07 |
| CAAGUCCUGUGCUACACAUCGUAUGUACCGAAUCGGUUUUUUUGGAGGAAAAAGGAAAGUAUUAUGUUACGCCGUUCGGAUCUGCACUUC | -1.26 |
| UGGGAGGUGGAUUUUGUUUAUUUUUUUAGCUCAUUUCCAGGGGUGGGAAUUUUUUUUUAAUAUGUGUGAUGAAUAAAGUUGUUUUUGAAA | 0.475 |

Set 3
Target: CCNE1, cyclin fold, Cln2 fusion (human)
Technique: yeast growth competition, sequencing
Matrix: yeast
Notes: weak parent motif
Reference: not given
Direction: higher = stronger binding
Starting sequence: E2F7 docking peptide (human); SSAQRRLEIPSGG
| Variant | normalised enrichment score |
| --- | --- |
| S2A | -0.493 |
| I9L | 0.166 |
| S11A | -0.136 |
| R6A | -0.389 |
| R5K | -0.337 |
| P10A | 0.0434 |
| R5A | 0.35 |
| Q4A | 0.743 |

Single results of other studies
| Substance | target | assay | system | setting | scale | quantity | result |
| --- | --- | --- | --- | --- | --- | --- | --- |
| PhoQ, residues 284 288 289 292 302 303 ASVMEA | PhoP, residues 12 14 15 18 19 LYFRQ (Escherichia coli, UniProt P23836) | Sort-seq, refers to: YFP reporter | E. coli | PhoQ-PhoP variant library, together with: 10 µM Mg2+ | reference: high Mg2+ state, higher = stronger signaling | fold induction | 5.51 |

A few entries again (set 1):
| Variant | relative binding score |
| --- | --- |
| V43K | -1.14% |
| S140Y | 6.95% |
| S11D | 25% |
